Measured values pooled from the literature.
Each line is one published result; not all experiments were run side by side. Values joined by “and” are separate records of one study, mostly repeats; a detail may differ. ± marks the error that the study gave.
Astl: Astacin-like metalloendopeptidase (Astl, Mus musculus, UniProt Q6HA09)
Chain of UniProt Q6HA09 (whole entry, looked up): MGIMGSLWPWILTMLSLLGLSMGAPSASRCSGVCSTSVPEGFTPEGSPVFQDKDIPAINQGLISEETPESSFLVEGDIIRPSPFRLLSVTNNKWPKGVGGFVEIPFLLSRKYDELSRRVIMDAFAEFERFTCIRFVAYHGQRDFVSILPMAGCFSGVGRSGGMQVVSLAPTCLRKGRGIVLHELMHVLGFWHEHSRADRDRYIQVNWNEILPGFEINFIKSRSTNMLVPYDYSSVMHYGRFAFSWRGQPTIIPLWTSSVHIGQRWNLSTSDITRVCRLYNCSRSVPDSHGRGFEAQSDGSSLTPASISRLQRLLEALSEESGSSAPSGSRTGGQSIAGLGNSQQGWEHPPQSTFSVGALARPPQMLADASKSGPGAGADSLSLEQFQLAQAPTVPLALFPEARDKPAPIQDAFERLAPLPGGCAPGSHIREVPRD
rhodesain: Rhodesain (rhodesain, Trypanosoma brucei rhodesiense, UniProt Q95PM0)
Dipeptidyl peptidase 8: Dipeptidyl peptidase 8 (Homo sapiens, UniProt Q6V1X1)
Chain of UniProt Q16539 (whole entry, looked up): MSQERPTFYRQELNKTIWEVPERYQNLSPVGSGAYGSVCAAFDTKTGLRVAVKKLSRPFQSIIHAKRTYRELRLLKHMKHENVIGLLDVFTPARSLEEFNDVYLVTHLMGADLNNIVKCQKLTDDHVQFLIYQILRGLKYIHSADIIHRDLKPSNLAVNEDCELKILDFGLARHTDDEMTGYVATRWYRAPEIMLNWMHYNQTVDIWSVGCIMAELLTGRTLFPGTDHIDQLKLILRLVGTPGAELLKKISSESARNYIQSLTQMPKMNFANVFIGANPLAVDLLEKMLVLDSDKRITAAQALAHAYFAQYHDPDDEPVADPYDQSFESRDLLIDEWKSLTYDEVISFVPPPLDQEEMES
Chain of UniProt Q6V1X1 (whole entry, looked up): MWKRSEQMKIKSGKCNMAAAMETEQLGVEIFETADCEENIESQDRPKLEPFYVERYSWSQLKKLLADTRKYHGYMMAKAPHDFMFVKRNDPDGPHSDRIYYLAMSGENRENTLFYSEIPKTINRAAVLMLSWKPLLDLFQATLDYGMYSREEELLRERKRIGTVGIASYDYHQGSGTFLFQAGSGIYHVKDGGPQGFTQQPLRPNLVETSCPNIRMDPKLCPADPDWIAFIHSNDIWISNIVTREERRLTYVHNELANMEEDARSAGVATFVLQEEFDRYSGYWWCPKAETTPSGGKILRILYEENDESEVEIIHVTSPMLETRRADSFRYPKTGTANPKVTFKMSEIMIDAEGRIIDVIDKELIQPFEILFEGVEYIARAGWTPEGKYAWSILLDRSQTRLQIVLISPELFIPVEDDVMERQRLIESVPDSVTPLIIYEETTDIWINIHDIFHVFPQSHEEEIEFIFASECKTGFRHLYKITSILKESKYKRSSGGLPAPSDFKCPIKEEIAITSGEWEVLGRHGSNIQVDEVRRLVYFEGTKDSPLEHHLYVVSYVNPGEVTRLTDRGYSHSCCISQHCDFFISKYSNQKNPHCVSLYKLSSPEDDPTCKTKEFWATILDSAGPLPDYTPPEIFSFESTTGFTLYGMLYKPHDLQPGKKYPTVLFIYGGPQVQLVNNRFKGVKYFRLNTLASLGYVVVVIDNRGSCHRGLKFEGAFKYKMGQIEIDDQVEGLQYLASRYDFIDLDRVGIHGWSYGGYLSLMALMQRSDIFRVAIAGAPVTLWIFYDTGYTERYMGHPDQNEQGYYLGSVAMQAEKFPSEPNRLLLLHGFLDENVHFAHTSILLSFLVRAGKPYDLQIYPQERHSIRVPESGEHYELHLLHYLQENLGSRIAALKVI
Chain of UniProt P45983 (whole entry, looked up): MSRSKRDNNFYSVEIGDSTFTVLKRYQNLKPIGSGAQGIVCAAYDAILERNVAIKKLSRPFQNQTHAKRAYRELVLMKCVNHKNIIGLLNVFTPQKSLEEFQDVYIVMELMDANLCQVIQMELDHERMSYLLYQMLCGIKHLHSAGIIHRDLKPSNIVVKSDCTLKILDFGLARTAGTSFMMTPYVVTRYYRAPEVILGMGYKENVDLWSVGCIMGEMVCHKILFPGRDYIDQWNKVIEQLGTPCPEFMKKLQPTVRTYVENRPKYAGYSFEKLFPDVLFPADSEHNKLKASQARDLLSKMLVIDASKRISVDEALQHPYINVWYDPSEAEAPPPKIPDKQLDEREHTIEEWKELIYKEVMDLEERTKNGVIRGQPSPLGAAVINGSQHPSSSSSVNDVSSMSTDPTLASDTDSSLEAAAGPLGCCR
Chain of UniProt Q14191 (500-946, looked up): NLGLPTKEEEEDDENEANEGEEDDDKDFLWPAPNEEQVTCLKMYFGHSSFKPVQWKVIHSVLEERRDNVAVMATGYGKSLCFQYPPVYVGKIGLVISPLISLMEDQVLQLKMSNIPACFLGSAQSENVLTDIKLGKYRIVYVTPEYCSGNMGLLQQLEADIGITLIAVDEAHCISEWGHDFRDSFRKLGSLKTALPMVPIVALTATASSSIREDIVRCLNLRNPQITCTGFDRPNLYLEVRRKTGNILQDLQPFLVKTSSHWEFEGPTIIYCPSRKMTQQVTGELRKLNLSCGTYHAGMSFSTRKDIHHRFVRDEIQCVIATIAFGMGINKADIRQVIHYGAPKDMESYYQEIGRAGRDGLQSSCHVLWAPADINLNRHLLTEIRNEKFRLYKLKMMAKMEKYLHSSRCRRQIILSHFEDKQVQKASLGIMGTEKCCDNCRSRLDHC
Chain of UniProt Q9HB29 (whole entry, looked up): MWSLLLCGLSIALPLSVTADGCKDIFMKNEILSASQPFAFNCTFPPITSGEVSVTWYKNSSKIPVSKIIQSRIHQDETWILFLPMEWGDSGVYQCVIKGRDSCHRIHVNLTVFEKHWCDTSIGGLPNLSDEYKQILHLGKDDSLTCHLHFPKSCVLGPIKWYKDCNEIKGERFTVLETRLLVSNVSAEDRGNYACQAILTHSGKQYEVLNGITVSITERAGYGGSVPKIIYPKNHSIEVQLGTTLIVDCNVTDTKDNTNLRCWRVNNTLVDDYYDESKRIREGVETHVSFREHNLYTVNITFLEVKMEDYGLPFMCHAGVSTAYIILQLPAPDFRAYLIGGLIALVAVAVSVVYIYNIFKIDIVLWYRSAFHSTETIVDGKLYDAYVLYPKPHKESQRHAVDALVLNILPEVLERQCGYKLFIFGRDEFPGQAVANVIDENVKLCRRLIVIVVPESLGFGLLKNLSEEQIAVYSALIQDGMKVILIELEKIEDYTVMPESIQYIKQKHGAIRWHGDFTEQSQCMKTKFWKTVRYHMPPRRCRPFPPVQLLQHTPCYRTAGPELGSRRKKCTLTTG
Chain of UniProt P14778 (whole entry, looked up): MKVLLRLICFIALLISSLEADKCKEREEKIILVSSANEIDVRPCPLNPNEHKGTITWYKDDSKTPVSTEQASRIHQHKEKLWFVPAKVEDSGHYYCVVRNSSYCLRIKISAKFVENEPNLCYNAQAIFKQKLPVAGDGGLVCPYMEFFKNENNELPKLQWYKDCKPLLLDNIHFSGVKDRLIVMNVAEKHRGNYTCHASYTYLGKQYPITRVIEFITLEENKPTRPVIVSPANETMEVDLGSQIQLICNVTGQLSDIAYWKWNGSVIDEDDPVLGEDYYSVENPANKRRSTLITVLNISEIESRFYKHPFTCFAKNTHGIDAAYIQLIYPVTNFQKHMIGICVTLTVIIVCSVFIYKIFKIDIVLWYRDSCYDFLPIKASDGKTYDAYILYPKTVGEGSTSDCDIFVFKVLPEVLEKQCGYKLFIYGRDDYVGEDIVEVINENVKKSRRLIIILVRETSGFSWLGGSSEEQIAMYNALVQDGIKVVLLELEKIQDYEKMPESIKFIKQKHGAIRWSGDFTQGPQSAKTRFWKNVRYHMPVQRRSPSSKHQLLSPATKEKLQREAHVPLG
Chain of UniProt O43187 (whole entry, looked up): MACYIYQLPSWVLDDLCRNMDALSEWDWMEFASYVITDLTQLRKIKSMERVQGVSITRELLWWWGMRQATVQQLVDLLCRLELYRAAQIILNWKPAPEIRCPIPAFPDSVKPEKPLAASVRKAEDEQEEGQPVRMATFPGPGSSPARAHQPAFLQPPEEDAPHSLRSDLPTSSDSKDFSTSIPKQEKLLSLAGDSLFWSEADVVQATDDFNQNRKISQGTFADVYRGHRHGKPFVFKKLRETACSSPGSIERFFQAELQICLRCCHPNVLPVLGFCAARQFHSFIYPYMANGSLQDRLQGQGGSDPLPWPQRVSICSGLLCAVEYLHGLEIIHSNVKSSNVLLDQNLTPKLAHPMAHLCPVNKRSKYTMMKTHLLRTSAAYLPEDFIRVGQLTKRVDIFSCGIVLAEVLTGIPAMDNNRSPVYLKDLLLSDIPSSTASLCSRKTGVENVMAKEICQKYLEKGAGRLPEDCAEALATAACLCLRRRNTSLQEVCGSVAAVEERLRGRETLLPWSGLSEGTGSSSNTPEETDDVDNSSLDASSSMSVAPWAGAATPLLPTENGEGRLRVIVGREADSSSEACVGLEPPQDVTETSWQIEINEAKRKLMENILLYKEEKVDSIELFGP

COc1ccc(CN(CC(=O)NO)Cc2cccc(C(=O)O)c2)cc1 — remaining activity (Astl; enzyme activity, inhibitor, fluorogenic; 0.25 µM): 102 ± 5%
COC(=O)c1cc2cc3c(cc2oc1=O)N(CC(=O)NC(Cc1cccc(Cl)c1)C(=O)NCC=CS(=O)(=O)c1ccccc1)CCC3 (stereo not shown) — remaining activity (rhodesain; enzyme activity, inhibitor, fluorescence; 5 µM): 40%
Nc1ncc(-c2cc(-c3cnn(CC(F)(F)F)c3)ncc2F)nc1C(=O)NC1CNCC(F)C1 (stereo not shown) — remaining activity (Interleukin-1 receptor-associated kinase-like 2 (IRAK2, Homo sapiens, UniProt O43187); enzyme activity; 1 µM; reference: DMSO control): 92.8%
COc1ccccc1-c1ccncc1C(=O)Nc1nnc(OCc2ccc(Cl)cc2)s1 — remaining activity (Bifunctional 3'-5' exonuclease/ATP-dependent helicase WRN, residues 500-946 (WRN, Homo sapiens, UniProt Q14191); ATPase activity, ADP-Glo; 0.008 µM; reference: 0 µM cpd): 99%
CC(=O)N1c2ccc(-c3ccc(CNC(=O)c4cn5cc(-c6cnc(N)nc6)nc(N6CCOCC6)c5n4)cc3)cc2CC[C@@H]1C — remaining activity (Serine-protein kinase ATM (ATM, Homo sapiens, UniProt Q13315); enzyme activity, inhibitor, radiometric; 0.1 µM): 105%
COC(=O)[C@]1(C(C)C)C=C(C(=O)Nc2cccc(C(=O)Nc3ccc(Nc4nccc(-c5cccnc5)n4)c(C)c3)c2)C(=O)CC1 — remaining activity (Mitogen-activated protein kinase 8 (MAPK8, Homo sapiens, UniProt P45983); kinase activity, inhibitor; 0.002258 µM, unit not given, added: 10 mM glutathione; reference: no inhibitor): 1
N#Cc1cnc2sc(C(=O)O)cc2c1N1CCc2[nH]nc(C(=O)N[C@@H](CC(=O)NCCOCCN3CCOCC3)c3cccc(Br)c3)c2C1 — remaining activity (Interleukin-1 receptor type 1 (IL1R1, Homo sapiens, UniProt P14778); SEAP reporter gene, antagonist; HEK-Blue IL-36R cells; 33.33 µM, 6 h, added: IL-1β 5 ng/mL; reference: untreated): 102%
N#Cc1ccc(CN(CCC(=O)NO)Cc2ccc(C#N)cc2)cc1 — remaining activity (Astl; enzyme activity, inhibitor, fluorogenic; 0.25 µM): 88 ± 4%
COC(=O)[C@@]1(C)C=C(C(=O)Nc2cccc(C(=O)Nc3ccc(Nc4nccc(-c5cccnc5)n4)c(C)c3)c2)C(=O)CC1 — remaining activity (Mitogen-activated protein kinase 14 (MAPK14, Homo sapiens, UniProt Q16539); enzyme activity, inhibitor; 14.81 µM, unit not given; reference: vehicle): 0.718 and 0.554 and 0.569
C[C@](C(=O)NC1CCOCC1)(c1cncnc1)N(C(=O)[C@H](F)Cl)c1ccc(OC(F)(F)Cl)cc1 — remaining activity (Dipeptidyl peptidase 8; enzyme activity, inhibitor; 10 µM): 102%
CN(Cc1cc(C2CC2)on1)C(=O)c1cccc(-c2ccc3c(c2)CCO3)c1 — remaining activity (acetoacetyl-CoA synthetase (Cryptococcus neoformans); enzyme activity, inhibitor; 31.3 µM): 104%
O=C(CN(Cc1cccc(C(=O)O)c1)Cc1ccc2c(c1)OCO2)NO — remaining activity (Astl; enzyme activity, inhibitor, fluorogenic; 5 µM): 39 ± 3%
CC(C)[C@@H]1NC(=O)[C@H](Cc2ccccc2)NC(=O)CSC[C@@H](C(N)=O)NC(=O)[C@H](CCC(=O)O)NC(=O)[C@H](CO)NC(=O)[C@H](Cc2c[nH]c3cccc(Cl)c23)NC(=O)[C@H](C2CCCCC2)NC(=O)[C@H](C(C)C)NC(=O)[C@H](Cc2ccc(O)cc2)NC(=O)[C@H](CC(=O)O)NC(=O)[C@H](Cc2c[nH]c3ccccc23)NC(=O)[C@H](Cc2ccc(N)nc2)NC(=O)[C@H](Cc2c[nH]c3ccc(Cl)cc23)NC(=O)[C@H](CCC(=O)O)NC1=O — remaining activity (Interleukin-1 receptor-like 2 (IL1RL2, Homo sapiens, UniProt Q9HB29); reporter gene (SEAP), inhibitor, HEK-Blue IL-36R reporter; HEK-Blue IL-36R cells; 100 µM, 6 h, added: IL-36β 0.3 ng/mL): 4.2%
O=C(CN(Cc1cccc(C(=O)O)c1)Cc1cccc(C(=O)O)c1)NO — remaining activity (Astl; enzyme activity, inhibitor, fluorogenic; 0.25 µM): 109 ± 4%
CCC1(CC)C(=O)N(c2cccc(CN3CCN(C)CC3)c2)C1=O — remaining activity (Dipeptidyl peptidase 8; enzyme activity, inhibitor; 5 µM): 81%
O=C(CN(Cc1ccc2c(c1)OCO2)Cc1ccc2c(c1)OCO2)NO — remaining activity (Astl; enzyme activity, inhibitor, fluorogenic; 0.25 µM): 85 ± 5%
Cc1cc(NC(=O)c2cccc(NC(=O)/C(C#N)=C/C(C)(C)C)c2)ccc1Nc1nccc(-c2cccnc2)n1 — remaining activity (Mitogen-activated protein kinase 8, phosphorylated (MAPK8, Homo sapiens, UniProt P45983); enzyme activity after dialysis, inhibitor; 10 µM, 5 days, unit not given; reference: no inhibitor): 1.1
Cc1cnc2nc1Nc1cccc(c1)COC/C=C/COCc1cc(ccc1OCCN1CCOCC1)N2 — remaining activity (Epidermal growth factor receptor (EGFR, Homo sapiens, UniProt P00533, T790M); concentration not given; reference: untreated control): 100%
O=C(CN(Cc1ccccc1)Cc1cccc(C(=O)O)c1)NO — remaining activity (Astl; enzyme activity, inhibitor, fluorogenic; 5 µM): 75 ± 1%
CC(C)(C)OC(=O)NC(Cc1cccc(Cl)c1)C(=O)NCC=CS(=O)(=O)c1ccccc1 (stereo not shown) — remaining activity (rhodesain; enzyme activity, inhibitor, fluorescence; 5 µM): < 1%
O=C(CCN(Cc1ccc(Cl)cc1F)Cc1ccc(Cl)cc1F)NO — remaining activity (Astl; enzyme activity, inhibitor, fluorogenic; 0.25 µM): 78 ± 6%
CCC1(CC)C(=O)N(c2cccc(CN3CCN(Cc4ccc(Br)cc4)CC3)c2)C1=O — remaining activity (Dipeptidyl peptidase 8; enzyme activity, inhibitor; 5 µM): 10%
